# Earlier results that unrelated publications cite.
# Each line is one published result; not all experiments were run side by side. Numbers after ± are the reported error.
# Organism: HIV-1
SMILES,read-out,method,cell line,strain,notes,measurement,result
CC(C)CN(C[C@@H](O)[C@H](Cc1cc(F)cc(F)c1)NC(=O)O[C@H]1C2COC3OCC1C3C2)S(=O)(=O)c1ccc2nc(NC3CC3)sc2c1 (stereo partly drawn),viral replication,,,including drug-resistant strains,,IC50,0.019 nM
Cn1c(Cn2ccc(C(F)(F)F)c(Oc3cc(Cl)cc(C#N)c3)c2=O)n[nH]c1=O,viral replication,MTT,MT-4,RES056 K103N/Y181C,,EC50,128 ± 60.6 nM
CC(=O)c1ccc(C)cc1NC(C(N)=O)c1c(Cl)cccc1Cl (stereo not drawn),viral replication,,,,,EC50,13 nM
CC(C)CN(C[C@@H](O)[C@H](Cc1ccccc1)NC(=O)O[C@H]1CO[C@H]2OCC(F)(F)[C@H]21)S(=O)(=O)c1ccc(N)cc1,viral replication,,,multidrug resistant strains,range over seven strains,EC50,2 to 20 nM
"Cc1nc([C@@H](CN)NC(=O)c2ccc(-c3ccc(F)c(F)c3)[nH]2)sc1CO (single isomer, unassigned)",viral infection,,TZM-bl,HXB2 Env pseudovirus,single-cycle,IC50,3300 ± 300 nM
Cc1nnc(C(=O)NC(C)(C)c2nc(C(=O)NCc3ccc(F)cc3)c(O)c(=O)n2C)o1,viral replication,lentiviral vector,,wild-type integrase,,EC50,4 ± 2 nM
CC1(C)CC(NC(=O)C(=O)Nc2ccc(Cl)cc2)CC(C)(C)N1,single-cycle viral replication,,TZM-bl,HXB2,,EC50,6900 ± 900 nM
C[C@@H]1CCO[C@H]2Cn3cc(C(=O)NCc4ccc(F)cc4F)c(=O)c(O)c3C(=O)N12,viral replication,lentiviral vector,,wild-type integrase,,EC50,1.6 ± 0.9 nM
COc1ccccc1NC(=O)c1ccccc1Sc1ccc([N+](=O)[O-])cc1,viral replication,,non-permissive cells expressing APOBEC3G,,,IC50,6000 nM

# For quick reference, copied from above:
SMILES,read-out,method,cell line,strain,notes,measurement,result
CC1(C)CC(NC(=O)C(=O)Nc2ccc(Cl)cc2)CC(C)(C)N1,single-cycle viral replication,,TZM-bl,HXB2,,EC50,6900 ± 900 nM
